Assay results of several laboratories.
Lines come from different studies, so protocols differ. Numbers after ± are the reported error.
Organism: Plasmodium falciparum

For `Clc1ccc2c(NCCCN3CCN(c4ccnc(N5CCCC5)n4)CC3)ccnc2c1`, the IC50 was 30 nM (parasite growth; W2; 72 h, drug-resistant strain, blood stage).
`COc1cccc2c(-c3ccc(O)c4c3CC(C)(C)N=C4)ccc(OC(C)C)c12` has an IC50 of 238 nM (parasite growth, SYBR Green; W2; 96 h, drug-resistant strain, blood stage).
The IC50 of `Oc1c(CN(Cc2ccccn2)Cc2ccccn2)cc(CCn2cc(COCCOCCOCCOCc3cn(CCc4cc(CN(Cc5ccccn5)Cc5ccccn5)c(O)c(CN(Cc5ccccn5)Cc5ccccn5)c4)nn3)nn2)cc1CN(Cc1ccccn1)Cc1ccccn1` is reported as 79 ± 14 nM (growth, [3H]hypoxanthine incorporation; W2 chloroquine-resistant; 48 h).
The IC50 of `CCC1=CC(c2ccc[nH]2)=NC1=CNC1CCCCCC1` is reported as greater than 250 nM (parasite growth; Dd2, chloroquine-resistant).
With `CCCCNCC(O)Cn1c2ccccc2c2ccccc21` (stereo not shown) the IC50 was 760 ± 22 nM (SYBR Green I; 3D7 chloroquine-sensitive; 72 h).
For `O=C(c1ccccc1)N1CCC2(CC1)OOC1(CCCC1)OO2`, the IC50 was 19.4 nM (parasite growth, imaging; 3D7; 48 h, blood stage).
With `CC(C)(C)OC(=O)N[C@H](Cc1ccccc1)[C@@H](O)CN1CCC(N2CCCCC2)CC1` the IC50 was 785 ± 20.9 nM (blood-stage growth, SYBR Green I fluorescence; IPC4912 (MRA-1241) artemisinin-resistant; 72 h).
The IC50 of `CCC1=C(C)C(c2ccc[nH]2)=NC1=CNC12CC3CC(CC(C3)C1)C2` is reported as 14 nM (parasite growth; Dd2, chloroquine-resistant).
`CC[C@H](C)[C@@H]1NC(=O)[C@H](CCCCN)NC(=O)[C@H](CCCNC(=N)N)NC(=O)[C@H](Cc2ccc(O)cc2)NC(=O)[C@H](CC(C)C)NC(=O)[C@@H]2CCCN2C(=O)[C@H](C)NC(=O)CNC(=O)CNC(=O)[C@H](CO)NC(=O)CNC(=O)CNC(=O)[C@H](CO)NC(=O)[C@H](CCC(=O)O)NC(=O)[C@H](CC(C)C)NC(=O)[C@H](CC(C)C)NC(=O)[C@H](CCCCN)NC(=O)[C@H](CCCCN)NC(=O)[C@H]([C@@H](C)CC)NC(=O)[C@H]([C@@H](C)CC)NC(=O)[C@H](CCCCN)NC(=O)[C@H](CCCNC(=N)N)NC(=O)[C@H](Cc2ccc(O)cc2)NC(=O)[C@H](CC(C)C)NC(=O)[C@@H]2CCCN2C(=O)CNC(=O)CNC(=O)[C@@H](NC(=O)CN)CSSC[C@@H](C(N)=O)NC(=O)[C@H](CC(C)C)NC(=O)[C@H](CCCCN)NC(=O)[C@H](CCCCN)NC(=O)[C@H]([C@@H](C)CC)NC1=O` has an IC50 of 11300 ± 700 nM (parasite growth; 3D7; 72 h, 5% serum plus Albumax II).
For `CC1=CC(=CNC2CCCCCC2)N=C1c1ccc[nH]1`, the IC50 was 2150 nM (parasite growth; 7G8, chloroquine-resistant).
`CC[C@H](C)[C@@H]1NC(=O)[C@H](CCCNC(=N)N)NC(=O)[C@H](CCCCN)NC(=O)[C@H](Cc2ccc(O)cc2)NC(=O)[C@H](CC(C)C)NC(=O)[C@@H]2CCCN2C(=O)[C@H](C)NC(=O)CNC(=O)CNC(=O)[C@H](CO)NC(=O)CNC(=O)CNC(=O)[C@H](CO)NC(=O)[C@H](CCC(=O)O)NC(=O)[C@H](CC(C)C)NC(=O)[C@H](CC(C)C)NC(=O)[C@H](CCCCN)NC(=O)[C@H](CCCCN)NC(=O)[C@H]([C@@H](C)CC)NC(=O)[C@H]([C@@H](C)CC)NC(=O)[C@H](CCCNC(=N)N)NC(=O)[C@H](CCCCN)NC(=O)[C@H](Cc2ccc(O)cc2)NC(=O)[C@H](CC(C)C)NC(=O)[C@@H]2CCCN2C(=O)CNC(=O)CNC(=O)[C@@H](NC(=O)CN)CSSC[C@@H](C(N)=O)NC(=O)[C@H](CC(C)C)NC(=O)[C@H](CCCCN)NC(=O)[C@H](CCCCN)NC(=O)[C@H]([C@@H](C)CC)NC1=O` has an IC50 of 12300 ± 1000 nM (parasite growth; 3D7; 72 h, 5% serum plus Albumax II).
`COc1ccc2c(c1)C1CC(C)(N2)c2c(C)nc3ccc(OC)cc3c21` (stereo not shown) gave an IC50 of 11.3 ± 1.09 nM (parasite growth, SYBR green I; Cam3.1 R539T (MRA1240)).
With `CC[C@H](C)[C@@H]1NC(=O)[C@H](CCCCN)NC(=O)[C@H](CCCCN)NC(=O)[C@H](Cc2ccc(O)cc2)NC(=O)[C@H](CC(C)C)NC(=O)[C@@H]2CCCN2C(=O)[C@H](C)NC(=O)CNC(=O)CNC(=O)[C@H](CO)NC(=O)CNC(=O)CNC(=O)[C@H](CO)NC(=O)[C@H](CCC(=O)O)NC(=O)[C@H](CC(C)C)NC(=O)[C@H](CC(C)C)NC(=O)[C@H](CCCCN)NC(=O)[C@H](CCCNC(=N)N)NC(=O)[C@H]([C@@H](C)CC)NC(=O)[C@H]([C@@H](C)CC)NC(=O)[C@H](CCCCN)NC(=O)[C@H](CCCCN)NC(=O)[C@H](Cc2ccc(O)cc2)NC(=O)[C@H](CC(C)C)NC(=O)[C@@H]2CCCN2C(=O)CNC(=O)CNC(=O)[C@@H](NC(=O)CN)CSSC[C@@H](C(N)=O)NC(=O)[C@H](CC(C)C)NC(=O)[C@H](CCCCN)NC(=O)[C@H](CCCNC(=N)N)NC(=O)[C@H]([C@@H](C)CC)NC1=O` the IC50 was 5100 ± 200 nM (parasite growth; 3D7; 72 h, Albumax II medium, no serum).
For `C[C@H]1C(=O)O[C@@H]2O[C@@]3(C)CC[C@@H]4[C@@]2(OO3)[C@H]1CC[C@]4(C)O`, the IC50 was 133 nM (parasite growth, SYBR Green I; Dd2, chloroquine-resistant).
`[N-]=[N+]=NCCc1cc(CN(Cc2ccccn2)Cc2ccccn2)c(O)c(CN(Cc2ccccn2)Cc2ccccn2)c1` has an IC50 of 217 ± 64 nM (growth, [3H]hypoxanthine incorporation; W2 chloroquine-resistant; 48 h).
The IC50 of `CN(C)CCNC(=O)/C=C/C(Cc1ccccc1)Nc1ccnc2cc(Cl)ccc12` (stereo not shown) is reported as 145 ± 18.6 nM (parasite growth, SYTOX green flow cytometry; K1 chloroquine-resistant; 48 h, ring stage).
The IC50 of `C(=NC12CC3CC(CC(C3)C1)C2)c1cc(-c2ccc[nH]2)c[nH]1` is reported as greater than 2500 nM (parasite growth; 7G8, chloroquine-resistant).
For `Cc1ccc(C(C)C)cc1.[Cl][Ru+].[O-]c1ccccc1C=NCCNc1ccnc2cc(Cl)ccc12`, the IC50 was 70 ± 7 nM (parasite growth, parasite lactate dehydrogenase; D10 chloroquine-sensitive).
For `CCC1=C(C)C(=CNC23CC4CC(CC(C4)C2)C3)N=C1c1ccc[nH]1`, the IC50 was 3.6 nM (parasite growth; 7G8, chloroquine-resistant).
`COc1cc2c3cc1Oc1cc(ccc1O)CC1c4c(cc(OC)c(O)c4Oc4ccc(cc4)CC3N(C)CC2)CCN1C` (stereo not shown) has an IC50 of less than 1000 nM (parasite growth, SYBR Green I; 3D7).
With `NNCC1=C(O)C(=O)c2ccccc2C1=O` the IC50 was 11200 nM (parasite growth; W2; drug-resistant strain, blood stage).
The IC50 of `Clc1ccc(C2=CC(c3ccc[nH]3)=NC2=CNC2CCCCCC2)cc1` is reported as 348 nM (parasite growth; 7G8, chloroquine-resistant).
The IC50 of `C=CC1CN2CCC1CC2C(OC(=O)NCCCCCCNC(=O)OC(c1ccnc2ccc(OC)cc12)C1CC2CCN1CC2C=C)c1ccnc2ccc(OC)cc12` (stereo not shown) is reported as 49.2 ± 6.2 nM (parasite growth; Dd2, chloroquine-resistant).
With `COC1=CC(c2ccc[nH]2)=NC1=CN1CCCCC1` the IC50 was greater than 2500 nM (parasite growth; Dd2, chloroquine-resistant).
The IC50 of `C#CCOc1ccc(C=NNC(=N)NN=Cc2ccc(OCC#C)cc2)cc1` is reported as 199 nM (parasite growth, SYBR Green; DD2; 72 h, drug-resistant strain, blood stage).
For `CC[C@H](C)[C@@H]1NC(=O)[C@H](CCCCN)NC(=O)[C@H](CCCCN)NC(=O)[C@H](Cc2ccc(O)cc2)NC(=O)[C@H](CC(C)C)NC(=O)[C@@H]2CCCN2C(=O)[C@H](C)NC(=O)CNC(=O)CNC(=O)[C@H](CO)NC(=O)CNC(=O)CNC(=O)[C@H](CO)NC(=O)[C@H](CCC(=O)O)NC(=O)[C@H](CC(C)C)NC(=O)[C@H](CC(C)C)NC(=O)[C@H](CCCCN)NC(=O)[C@H](CCCCN)NC(=O)[C@H]([C@@H](C)CC)NC(=O)[C@H]([C@@H](C)CC)NC(=O)[C@H](CCCCN)NC(=O)[C@H](CCCCN)NC(=O)[C@H](Cc2ccc(O)cc2)NC(=O)[C@H](CC(C)C)NC(=O)[C@@H]2CCCN2C(=O)CNC(=O)CNC(=O)[C@@H](NC(=O)CN)CSSC[C@@H](C(=O)O)NC(=O)[C@H](CC(C)C)NC(=O)[C@H](CCCCN)NC(=O)[C@H](CCCCN)NC(=O)[C@H]([C@@H](C)CC)NC1=O`, the IC50 was greater than 67500 nM (parasite growth; 3D7; 72 h, 5% serum plus Albumax II).
`C1=CC(c2ccc[nH]2)=NC1=CNC1CCCCCCC1` gave an IC50 of greater than 2500 nM (parasite growth; 7G8, chloroquine-resistant).
`CC[C@H](C)[C@@H]1NC(=O)[C@H](CCCCN)NC(=O)[C@H](CCCCN)NC(=O)[C@H](Cc2ccc(O)cc2)NC(=O)[C@H](CC(C)C)NC(=O)[C@@H]2CCCN2C(=O)CNC(=O)CNC(=O)[C@@H](N)CSSC[C@@H](C(=O)N[C@@H](CCC(=O)O)C(=O)N[C@@H](CO)C(N)=O)NC(=O)[C@H](CC(C)C)NC(=O)[C@H](CCCCN)NC(=O)[C@H](CCCCN)NC(=O)[C@H]([C@@H](C)CC)NC(=O)[C@H]([C@@H](C)CC)NC(=O)[C@H](CCCCN)NC(=O)[C@H](CCCCN)NC(=O)[C@H](Cc2ccc(O)cc2)NC(=O)[C@H](CC(C)C)NC(=O)[C@@H]2CCCN2C(=O)[C@H](C)NC(=O)CNC(=O)CNC(=O)[C@H](CO)NC(=O)CNC(=O)CNC(=O)[C@H](CO)NC(=O)[C@H](CCC(=O)O)NC(=O)[C@H](CC(C)C)NC(=O)[C@H](CC(C)C)NC(=O)[C@H](CCCCN)NC(=O)[C@H](CCCCN)NC(=O)[C@H]([C@@H](C)CC)NC1=O` has an IC50 of 16900 ± 1100 nM (parasite growth; 3D7; 72 h, 5% serum plus Albumax II).
For `Cc1[nH]c2ccccc2c1C1CCN(CC2CCC(NC(=O)/C=C/c3ccc(Cl)c(Cl)c3)CC2)CC1` (stereo not shown), the IC50 was no more than 50 nM (parasite growth; 3D7; 72 h, asynchronous culture).
With `CC[C@H](C)[C@@H]1NC(=O)[C@H](CCCCN)NC(=O)[C@H](CCCCN)NC(=O)[C@H](Cc2ccc(O)cc2)NC(=O)[C@H](CC(C)C)NC(=O)[C@@H]2CCCN2C(=O)[C@H](C)NC(=O)CNC(=O)CNC(=O)[C@H](CO)NC(=O)CNC(=O)CNC(=O)[C@H](CC(N)=O)NC(=O)[C@H](CCC(=O)O)NC(=O)[C@H](CC(C)C)NC(=O)[C@H](CC(C)C)NC(=O)[C@H](CCCCN)NC(=O)[C@H](CCCCN)NC(=O)[C@H]([C@@H](C)CC)NC(=O)[C@H]([C@@H](C)CC)NC(=O)[C@H](CCCCN)NC(=O)[C@H](CCCCN)NC(=O)[C@H](Cc2ccc(O)cc2)NC(=O)[C@H](CC(C)C)NC(=O)[C@@H]2CCCN2C(=O)[C@H](C)NC(=O)CNC(=O)CNC(=O)[C@H](CO)NC(=O)CNC(=O)CNC(=O)[C@H](CC(N)=O)NC(=O)[C@H](CCC(=O)O)NC(=O)[C@H](CC(C)C)NC(=O)[C@H](CC(C)C)NC(=O)[C@H](CCCCN)NC(=O)[C@H](CCCCN)NC(=O)[C@H]([C@@H](C)CC)NC1=O` the IC50 was 6300 ± 700 nM (parasite growth; 3D7; 72 h, Albumax II medium, no serum).
With `c1cncc(CCCOCCCCCCCCCCCCOC2CCCCO2)c1` (stereo not shown) the IC50 was 8900 ± 400 nM (anti-HRPII ELISA; W2 chloroquine-resistant; 72 h).

A few entries again:
For `CCC1=C(C)C(=CNC23CC4CC(CC(C4)C2)C3)N=C1c1ccc[nH]1`, the IC50 was 3.6 nM (parasite growth; 7G8, chloroquine-resistant).
`COc1cc2c3cc1Oc1cc(ccc1O)CC1c4c(cc(OC)c(O)c4Oc4ccc(cc4)CC3N(C)CC2)CCN1C` (stereo not shown) has an IC50 of less than 1000 nM (parasite growth, SYBR Green I; 3D7).
With `NNCC1=C(O)C(=O)c2ccccc2C1=O` the IC50 was 11200 nM (parasite growth; W2; drug-resistant strain, blood stage).
